# Published values gathered from unrelated publications.
# Target: Rho-associated protein kinase 1 (ROCK1, Homo sapiens, UniProt Q13464)
# Chain of UniProt Q13464 (whole entry, looked up): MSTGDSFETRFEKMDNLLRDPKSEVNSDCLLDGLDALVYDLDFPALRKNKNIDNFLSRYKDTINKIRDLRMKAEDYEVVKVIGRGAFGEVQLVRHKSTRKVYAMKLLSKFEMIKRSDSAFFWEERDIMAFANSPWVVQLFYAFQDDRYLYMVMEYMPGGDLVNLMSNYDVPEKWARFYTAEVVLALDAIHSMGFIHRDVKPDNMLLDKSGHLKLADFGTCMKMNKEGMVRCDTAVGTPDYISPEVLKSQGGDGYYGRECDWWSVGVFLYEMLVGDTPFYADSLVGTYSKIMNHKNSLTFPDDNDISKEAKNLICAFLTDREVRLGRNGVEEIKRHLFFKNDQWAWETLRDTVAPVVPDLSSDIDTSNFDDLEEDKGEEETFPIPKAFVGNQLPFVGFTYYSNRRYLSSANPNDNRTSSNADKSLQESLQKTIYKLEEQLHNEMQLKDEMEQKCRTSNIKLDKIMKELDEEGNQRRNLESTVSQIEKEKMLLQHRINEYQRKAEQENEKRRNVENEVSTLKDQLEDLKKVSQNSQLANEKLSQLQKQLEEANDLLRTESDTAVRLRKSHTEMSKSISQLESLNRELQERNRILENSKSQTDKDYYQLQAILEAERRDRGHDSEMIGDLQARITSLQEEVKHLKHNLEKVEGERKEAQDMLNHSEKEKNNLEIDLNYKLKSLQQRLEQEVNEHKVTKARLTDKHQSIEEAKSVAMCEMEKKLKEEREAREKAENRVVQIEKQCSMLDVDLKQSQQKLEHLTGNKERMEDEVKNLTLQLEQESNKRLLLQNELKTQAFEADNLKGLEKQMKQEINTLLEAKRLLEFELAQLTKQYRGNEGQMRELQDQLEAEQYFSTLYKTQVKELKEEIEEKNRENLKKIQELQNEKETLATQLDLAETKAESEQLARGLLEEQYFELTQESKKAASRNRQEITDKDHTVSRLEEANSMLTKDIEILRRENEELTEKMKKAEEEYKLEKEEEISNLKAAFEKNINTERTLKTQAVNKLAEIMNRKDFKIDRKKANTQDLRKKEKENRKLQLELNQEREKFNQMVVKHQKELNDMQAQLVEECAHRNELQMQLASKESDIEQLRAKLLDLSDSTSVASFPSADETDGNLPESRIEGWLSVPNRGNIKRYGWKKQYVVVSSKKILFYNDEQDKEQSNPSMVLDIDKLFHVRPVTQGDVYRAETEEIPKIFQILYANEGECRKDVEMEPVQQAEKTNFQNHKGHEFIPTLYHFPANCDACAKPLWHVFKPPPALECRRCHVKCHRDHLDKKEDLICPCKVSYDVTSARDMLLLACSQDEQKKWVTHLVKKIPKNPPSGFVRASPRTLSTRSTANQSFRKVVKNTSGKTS
SMILES,test,test system,conditions,how to read,quantity,result
COc1ccc(C(=O)/C=C/c2ccccc2-c2c[nH]c3ccc(C#N)cc23)c(O)c1,"enzyme activity, inhibitor",,20 µM,,inhibition,10%
Cc1cccc(O[C@H]2CCC[C@@H](C(C)CNCc3ccncc3)C2)c1 (relative stereo),"enzyme activity, inhibitor",,10 µM,,inhibition,6%
C=CC(=O)N1CCCC(n2c(=O)c3ncccc3n(Cc3ccc(Oc4ccccc4)cc3)c2=O)C1 (stereo not shown),"cell-free assay, competition with immobilised ligand",,1 µM,,remaining binding,81%
Nc1ncc(-c2cc(-c3cnn(CC(F)(F)F)c3)ncc2F)nc1C(=O)NC1CNCC(F)C1 (stereo not shown),enzyme activity,,1 µM,reference: DMSO control,remaining activity,102%
Cc1ccc(-c2c(/C=C(\C#N)C(=O)NC(C)C)n(CCCO)c3ncnc(N)c23)cc1,"cell-free assay, competition with immobilised ligand",,1 µM,,remaining binding,93%
CN1CC[C@@H](COc2cnc(C#N)cc2-c2ccn3nc(NC(=O)C4CC4)cc3c2)C1,"enzyme activity, inhibitor",,1 µM,,inhibition,-8%
COc1cc(-n2cc3cc(F)cc(C(N)=O)c3n2)cc(Cl)c1C1CC(O)(CCO)Cc2ccccc21 (stereo not shown),"enzyme activity, inhibitor",,10 µM,,inhibition,0.17%
Nc1ncc2c(n1)-c1c([nH]c3ccc(C4=CCOCC4)cc13)CCC2,"binding, competition with immobilised ligand",,1 µM,,remaining binding,100%
CNC(=O)C[C@H](Cc1ccc(C#N)cc1)NC(=O)c1cc(-c2ccc(CN[C@H](C)c3ccc(C)cc3)o2)ccc1Cl,"enzyme activity, inhibitor",,1 µM,,activity vs control,107%
CCN1CCN(Cc2ccc(C(=O)Nc3ccc(C)c(NCc4cnc5[nH]ccc5c4OC)c3)cc2C(F)(F)F)CC1,"binding, competition with immobilised ligand",,1 µM,,remaining binding,100%
O=C(Cc1ccc(OCc2ccccc2)cc1)NC1(C(=O)O)CCN(C(=O)c2ccc(-c3cccc(Cl)c3)cc2)CC1,"enzyme activity, inhibitor",,10 µM,,activity vs control,103%
NC(=O)C[C@H]1CCc2sc3ncnc(O[C@H]4CC[C@H](N5CCOCC5)CC4)c3c21,"enzyme activity, inhibitor",,10 µM,,inhibition,2%
COc1ccc(O)cc1-c1c[nH]c2ncc(-c3cncc(C(=O)N(C)C)c3)cc12,"binding, competition with immobilised ligand",,0.2 µM,,inhibition,3.59%
COCC12C(=O)NC3C4(C(OC)CC1O)C1CC5(O)C(OC)C(O)C(OC(C)=O)(C1C5OC(=O)c1ccccc1)C3(O)C(OC)C24 (stereo not shown),"kinase activity, inhibitor, ProQinase kinase profiling",,25 µM,reference: control,remaining activity,99%
COc1cc(Nc2nc(C)cc(-c3cnn4nc(OC)ccc34)n2)cc(C(F)(F)F)c1,"binding, competition with immobilised ligand",,1 µM,,remaining binding,99%
CNC1C[S+]2CC[S+]3CC[S+](C1)[Ru-4]321([N]=C=S)[n]2c3ccc(OC)cc3c3c4c(c5cc(F)c[n+]1c5c32)C(=O)NC4=O (stereo not shown),KinomeScan,,0.1 µM,reference: untreated,remaining binding,100%
CS(=O)(=O)Nc1cccc(-c2csc3cnc(Nc4ccc(N5CCN(CCCCCOc6cccc7c6C(=O)N(C6CCC(=O)NC6=O)C7=O)CC5)cc4)nc23)c1 (stereo not shown),"kinase probe labelling, binder, KiNativ ATP-acylphosphate LC-MS",MOLT-4 live cells,1 µM,,inhibition,-19.1%
Cc1[nH]nc2c1N=C(c1ccccc1Cl)c1cnc(N3CCOCC3)cc1N2,"enzyme activity, inhibitor",,0.5 µM,,inhibition,1%
C=CC(=O)Nc1cccc(-c2cnc3[nH]cc(C(=O)NC(C)(C)C)c3n2)c1,"enzyme activity, inhibitor",,0.1 µM,,inhibition,31%

# Repeated from above:
SMILES,test,test system,conditions,how to read,quantity,result
COc1cc(-n2cc3cc(F)cc(C(N)=O)c3n2)cc(Cl)c1C1CC(O)(CCO)Cc2ccccc21 (stereo not shown),"enzyme activity, inhibitor",,10 µM,,inhibition,0.17%
Nc1ncc2c(n1)-c1c([nH]c3ccc(C4=CCOCC4)cc13)CCC2,"binding, competition with immobilised ligand",,1 µM,,remaining binding,100%
